Experimental data of several laboratories.
A part holds a random share of what one study measured.
UniProt Q9Y6E0, sequence (whole entry, looked up): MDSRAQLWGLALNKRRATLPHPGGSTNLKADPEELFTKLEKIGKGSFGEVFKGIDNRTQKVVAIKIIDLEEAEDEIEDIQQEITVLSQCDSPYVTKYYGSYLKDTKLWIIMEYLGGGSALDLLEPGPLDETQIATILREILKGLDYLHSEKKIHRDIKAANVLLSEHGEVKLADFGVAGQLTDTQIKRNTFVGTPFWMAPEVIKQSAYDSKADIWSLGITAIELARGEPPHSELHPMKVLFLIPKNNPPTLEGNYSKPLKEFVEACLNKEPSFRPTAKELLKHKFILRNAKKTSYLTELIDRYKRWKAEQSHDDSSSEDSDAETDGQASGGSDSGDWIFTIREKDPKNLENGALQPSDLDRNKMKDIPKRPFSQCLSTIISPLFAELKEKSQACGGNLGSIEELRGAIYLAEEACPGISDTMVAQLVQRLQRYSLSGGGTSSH
UniProt P54760, sequence (whole entry, looked up): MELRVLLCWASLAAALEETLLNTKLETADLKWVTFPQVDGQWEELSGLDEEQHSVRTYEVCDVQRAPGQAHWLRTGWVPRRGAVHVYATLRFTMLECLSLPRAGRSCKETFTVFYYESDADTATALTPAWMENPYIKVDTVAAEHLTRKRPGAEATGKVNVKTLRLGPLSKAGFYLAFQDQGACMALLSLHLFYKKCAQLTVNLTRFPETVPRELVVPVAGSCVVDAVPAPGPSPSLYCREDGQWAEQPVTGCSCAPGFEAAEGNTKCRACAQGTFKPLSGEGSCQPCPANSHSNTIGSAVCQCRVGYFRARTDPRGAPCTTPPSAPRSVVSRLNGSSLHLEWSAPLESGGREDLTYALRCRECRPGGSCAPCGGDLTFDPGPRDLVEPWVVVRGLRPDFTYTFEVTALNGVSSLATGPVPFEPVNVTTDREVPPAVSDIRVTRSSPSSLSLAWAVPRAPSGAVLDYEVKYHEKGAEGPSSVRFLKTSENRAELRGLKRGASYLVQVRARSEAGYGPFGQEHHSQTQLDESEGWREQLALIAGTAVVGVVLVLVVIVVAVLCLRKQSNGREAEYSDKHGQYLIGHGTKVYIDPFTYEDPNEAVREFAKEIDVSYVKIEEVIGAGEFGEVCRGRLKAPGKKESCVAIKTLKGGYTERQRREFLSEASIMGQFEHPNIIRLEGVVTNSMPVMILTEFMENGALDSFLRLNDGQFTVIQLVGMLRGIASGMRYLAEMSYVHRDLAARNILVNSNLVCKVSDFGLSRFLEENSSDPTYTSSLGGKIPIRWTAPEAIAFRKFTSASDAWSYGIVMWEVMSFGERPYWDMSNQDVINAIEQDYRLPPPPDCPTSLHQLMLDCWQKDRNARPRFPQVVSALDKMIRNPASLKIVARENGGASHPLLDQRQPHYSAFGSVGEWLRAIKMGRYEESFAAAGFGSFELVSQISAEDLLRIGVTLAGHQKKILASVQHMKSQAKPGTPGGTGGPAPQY
UniProt O00329, sequence (whole entry, looked up): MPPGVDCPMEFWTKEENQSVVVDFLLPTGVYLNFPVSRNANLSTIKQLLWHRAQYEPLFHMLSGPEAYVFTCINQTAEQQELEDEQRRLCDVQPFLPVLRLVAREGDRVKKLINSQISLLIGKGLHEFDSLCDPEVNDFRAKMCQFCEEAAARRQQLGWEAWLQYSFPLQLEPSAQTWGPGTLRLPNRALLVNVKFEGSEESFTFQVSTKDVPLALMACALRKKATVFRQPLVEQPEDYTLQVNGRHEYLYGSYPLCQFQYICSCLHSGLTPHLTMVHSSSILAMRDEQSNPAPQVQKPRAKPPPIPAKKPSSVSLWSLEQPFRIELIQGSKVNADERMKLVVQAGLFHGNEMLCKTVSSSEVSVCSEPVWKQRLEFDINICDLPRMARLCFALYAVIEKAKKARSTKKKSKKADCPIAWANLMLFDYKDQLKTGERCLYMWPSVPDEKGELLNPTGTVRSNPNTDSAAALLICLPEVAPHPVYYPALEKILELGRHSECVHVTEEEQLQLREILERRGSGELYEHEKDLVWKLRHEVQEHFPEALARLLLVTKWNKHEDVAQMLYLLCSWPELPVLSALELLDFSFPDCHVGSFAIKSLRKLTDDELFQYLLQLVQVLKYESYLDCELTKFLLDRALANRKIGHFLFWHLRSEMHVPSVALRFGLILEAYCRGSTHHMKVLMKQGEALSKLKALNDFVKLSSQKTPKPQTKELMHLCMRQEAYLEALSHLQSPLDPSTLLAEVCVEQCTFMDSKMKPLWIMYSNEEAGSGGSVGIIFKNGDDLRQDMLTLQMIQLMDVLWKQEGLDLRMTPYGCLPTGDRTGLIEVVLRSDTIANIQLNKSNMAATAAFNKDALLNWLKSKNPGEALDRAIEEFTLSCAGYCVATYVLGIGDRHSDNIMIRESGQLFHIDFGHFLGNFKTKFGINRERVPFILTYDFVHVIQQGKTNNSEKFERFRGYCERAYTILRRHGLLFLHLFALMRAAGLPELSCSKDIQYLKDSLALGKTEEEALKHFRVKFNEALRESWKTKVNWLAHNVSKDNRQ
UniProt P51451, sequence (whole entry, looked up): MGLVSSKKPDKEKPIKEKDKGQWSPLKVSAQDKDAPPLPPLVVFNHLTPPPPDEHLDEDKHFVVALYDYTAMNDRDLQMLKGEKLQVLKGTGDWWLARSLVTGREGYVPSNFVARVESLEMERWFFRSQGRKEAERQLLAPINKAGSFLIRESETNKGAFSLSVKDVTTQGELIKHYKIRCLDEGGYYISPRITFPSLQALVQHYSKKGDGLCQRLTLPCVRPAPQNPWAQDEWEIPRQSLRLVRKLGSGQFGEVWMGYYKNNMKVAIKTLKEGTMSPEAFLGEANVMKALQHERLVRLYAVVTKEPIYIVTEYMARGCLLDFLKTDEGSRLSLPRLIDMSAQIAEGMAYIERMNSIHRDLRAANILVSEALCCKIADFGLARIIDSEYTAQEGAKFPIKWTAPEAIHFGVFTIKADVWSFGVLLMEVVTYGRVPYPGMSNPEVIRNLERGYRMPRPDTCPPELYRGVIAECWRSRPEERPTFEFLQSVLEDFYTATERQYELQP
UniProt P30291, sequence (whole entry, looked up): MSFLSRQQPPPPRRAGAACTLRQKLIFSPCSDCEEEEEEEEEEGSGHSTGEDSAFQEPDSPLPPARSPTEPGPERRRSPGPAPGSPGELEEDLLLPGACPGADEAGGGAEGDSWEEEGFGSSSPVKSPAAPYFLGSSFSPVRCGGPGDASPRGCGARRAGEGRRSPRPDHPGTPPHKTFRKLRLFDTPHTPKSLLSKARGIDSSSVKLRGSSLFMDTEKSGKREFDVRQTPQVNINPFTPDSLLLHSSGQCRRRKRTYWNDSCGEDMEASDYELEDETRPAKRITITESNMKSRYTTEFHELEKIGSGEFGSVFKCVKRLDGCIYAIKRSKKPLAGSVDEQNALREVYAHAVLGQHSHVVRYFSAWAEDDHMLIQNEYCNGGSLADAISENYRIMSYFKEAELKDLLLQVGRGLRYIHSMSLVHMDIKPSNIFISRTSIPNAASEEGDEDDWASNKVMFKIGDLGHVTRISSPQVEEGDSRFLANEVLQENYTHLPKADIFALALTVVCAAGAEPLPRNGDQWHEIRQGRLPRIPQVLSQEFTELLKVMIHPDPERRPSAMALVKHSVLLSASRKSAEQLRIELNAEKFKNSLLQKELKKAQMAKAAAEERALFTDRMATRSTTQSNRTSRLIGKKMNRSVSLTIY
UniProt O75716, sequence (whole entry, looked up): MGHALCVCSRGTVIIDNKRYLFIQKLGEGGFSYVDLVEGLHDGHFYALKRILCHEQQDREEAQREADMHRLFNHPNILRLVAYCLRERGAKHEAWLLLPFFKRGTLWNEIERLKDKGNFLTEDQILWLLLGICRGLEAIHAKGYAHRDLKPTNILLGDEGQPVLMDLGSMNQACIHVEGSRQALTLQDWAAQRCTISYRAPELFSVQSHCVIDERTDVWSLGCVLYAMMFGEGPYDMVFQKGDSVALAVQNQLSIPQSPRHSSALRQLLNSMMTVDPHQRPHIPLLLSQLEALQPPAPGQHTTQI

Sample 1 — Compound: C=CCc1ccc(O)c(-c2cc(CC=C)ccc2O)c1
ANO1 del476-501/R541A: Anoctamin-1 (ANO1, Homo sapiens, UniProt Q5XXA6, del476-501/R541A)
UniProt Q5XXA6, sequence (whole entry, unmodified, looked up): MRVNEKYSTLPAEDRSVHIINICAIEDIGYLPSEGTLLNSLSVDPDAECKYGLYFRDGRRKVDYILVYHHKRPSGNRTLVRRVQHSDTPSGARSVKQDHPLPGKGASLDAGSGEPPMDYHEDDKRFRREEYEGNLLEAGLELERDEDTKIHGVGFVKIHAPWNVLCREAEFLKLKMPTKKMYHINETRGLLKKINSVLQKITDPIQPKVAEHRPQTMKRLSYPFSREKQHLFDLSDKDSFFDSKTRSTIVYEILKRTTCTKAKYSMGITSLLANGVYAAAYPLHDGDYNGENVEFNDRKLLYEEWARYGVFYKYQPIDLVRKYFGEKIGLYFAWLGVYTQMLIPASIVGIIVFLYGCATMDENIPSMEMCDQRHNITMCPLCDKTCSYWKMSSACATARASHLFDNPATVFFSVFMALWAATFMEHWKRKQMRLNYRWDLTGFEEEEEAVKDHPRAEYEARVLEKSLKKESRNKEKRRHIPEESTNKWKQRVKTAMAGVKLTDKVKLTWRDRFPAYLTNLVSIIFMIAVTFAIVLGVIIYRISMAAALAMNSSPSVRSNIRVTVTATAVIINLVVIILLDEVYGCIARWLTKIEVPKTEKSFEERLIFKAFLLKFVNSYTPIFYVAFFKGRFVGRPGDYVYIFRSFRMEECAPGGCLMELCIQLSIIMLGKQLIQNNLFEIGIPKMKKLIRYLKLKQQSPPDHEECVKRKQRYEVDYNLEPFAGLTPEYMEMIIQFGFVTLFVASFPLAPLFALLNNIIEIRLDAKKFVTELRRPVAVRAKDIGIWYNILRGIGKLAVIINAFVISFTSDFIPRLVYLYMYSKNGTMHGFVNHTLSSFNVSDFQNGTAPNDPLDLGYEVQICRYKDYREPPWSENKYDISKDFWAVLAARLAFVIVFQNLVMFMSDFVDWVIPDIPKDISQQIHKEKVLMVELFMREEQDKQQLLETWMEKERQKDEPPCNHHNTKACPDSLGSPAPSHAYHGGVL
ANO1: Anoctamin-1 (ANO1, Homo sapiens, UniProt Q5XXA6)
ANO1 del476-501/E649A: Anoctamin-1 (ANO1, Homo sapiens, UniProt Q5XXA6, del476-501/E649A)
| target | assay | setting | how to read | normalized current |
| --- | --- | --- | --- | --- |
| Anoctamin-1 (ANO1, Homo sapiens, UniProt Q5XXA6, del476-501) | chloride current, whole-cell voltage clamp | 3 µM, membrane voltage 0 mV, together with: 4 µM Ca2+ (saturating) |  | -0.0016 |
| ANO1 del476-501/R541A | chloride current, whole-cell voltage clamp | 100 µM, membrane voltage 0 mV, together with: 4 µM Ca2+ (saturating) |  | -0.0017 |
| ANO1 | chloride current, inside-out patch clamp | 30 µM, membrane voltage -20 mV |  | -0.214 |
| ANO1 del476-501/R541A | chloride current, inside-out patch clamp | 30 µM, membrane voltage 40 mV |  | 0.245 |
| Anoctamin-1 (ANO1, Homo sapiens, UniProt Q5XXA6, del476-501/E659A) | chloride current, inside-out patch clamp | 30 µM, membrane voltage 0 mV |  | 0.0033 |
| Anoctamin-1 (ANO1, Homo sapiens, UniProt Q5XXA6, del476-501/K629A) | chloride current, inhibitor, whole-cell voltage clamp | 100 µM | relative to: untreated | 0.63 |
| ANO1 del476-501/E649A | ion current, inside-out patch clamp | 30 µM, E623A mutant at 120 mV |  | 1 |
| ANO1 | chloride current, inside-out patch clamp | 30 µM, membrane voltage 40 mV |  | 0.373 |
| ANO1 del476-501/E649A | ion current, inside-out patch clamp | 30 µM, E623A mutant at -20 mV |  | -0.124 |
| Anoctamin-1 (ANO1, Homo sapiens, UniProt Q5XXA6, del476-501/E659A/K629A) | chloride current, inside-out patch clamp | 30 µM, membrane voltage 20 mV |  | 0.134 |
| ANO1 | chloride current, inside-out patch clamp | 30 µM, membrane voltage 80 mV |  | 0.693 |
| ANO1 del476-501/R541A | chloride current, inhibitor, whole-cell voltage clamp | 30 µM, R515A mutant |  | 0.895 |

Sample 2 — host: human; matrix: microsomes or S9; tested at: 2 µM; time: 0.5 h
| SMILES | remaining compound [%] |
| --- | --- |
| COc1nn(C)c(=O)n1-c1cccc(Cl)c1Cl | 15.9 |
| O=c1c2ccc(Cl)cc2ncn1CCS(=O)(=O)c1cc(Cl)ccc1Cl | 78.6 |
| Cc1ccc(C)c(-n2nnnc2SCc2nc3cc(C(F)(F)F)ccc3c(=O)[nH]2)c1 | 65.7 |
| CC(C)(C)Nc1nc(Cl)nc(NC(C)(C)CO)n1 | > 99.9 |
| CC(C)n1nc(-c2nnc(-c3cccc(Br)c3)[nH]2)c2ccccc2c1=O | > 100 |
| Fc1ccc(-c2c(-n3cnnc3)nc3ccccc3c2Cl)cc1 | > 99 |
| COc1cc(Nc2ncnc3cc(OC)c(OCC4CN(C(=O)OC(C)(C)C)CCO4)cc23)ccc1Cl (stereo not drawn) | 27.8 |
| Cc1cc(NCc2cc(-c3cnn(C)c3C)no2)c(Cl)cc1F | 19.3 |
| NC(CC(=O)N1CCCCN1)Cc1ccccc1F (stereo not drawn) | 91 |
| CCN(CC)CCNc1nc(C)cc(COC)c1C(N)=O | 35.6 |
| CC(Nc1ncc(Cl)cn1)C(C)n1cncn1 (stereo not drawn) | 96.8 |
| Cc1ccc2c(c1)N(C(=O)c1ccncc1)CC(C)O2 (stereo not drawn) | > 100 |
| CCN(CCCNc1nc(-c2ccccc2)no1)c1ccccc1 | 1.53 |
| C=CC(C)(O)CC[C@]1(C)[C@H]2CC(=O)C=C(C)[C@]2(C)C[C@@H](O)[C@@H]1C (stereo partly drawn) | > 99.9 |

Sample 3 — observed: cell-free assay; technique: competition with immobilised ligand; tested at: 0.1 µM
Compound: COCCOc1nc(-c2ccc(Cl)nc2)nc2c1CN(C(=O)c1ncn3ccccc13)CC2
| target | remaining binding |
| --- | --- |
| GAK (Homo sapiens, UniProt O14976) | 100% |
| IRAK3 (Homo sapiens, UniProt Q9Y616) | 100% |
| MAP2K3 (Homo sapiens, UniProt P46734) | 93% |
| FLT4 (Homo sapiens, UniProt P35916) | 88% |
| Tyrosine-protein kinase JAK1, JH2 (JAK1, Homo sapiens, UniProt P23458) | 76% |
| WEE1 (Homo sapiens, UniProt P30291) | 100% |
| GRK2 (Homo sapiens, UniProt P25098) | 100% |
| MAPK1 (Homo sapiens, UniProt P28482) | 95% |
| MKNK1 (Homo sapiens, UniProt Q9BUB5) | 77% |
| Tyrosine-protein kinase ABL1, non-phosphorylated (ABL1, Homo sapiens, UniProt P00519, T315I) | 75% |
| STK38 (Homo sapiens, UniProt Q15208) | 100% |
| CSNK1E (Homo sapiens, UniProt P49674) | 100% |
| DMPK (Homo sapiens, UniProt Q09013) | 72% |
| ERBB2 (Homo sapiens, UniProt P04626) | 82% |
| STK32A (Homo sapiens, UniProt Q8WU08) | 83% |
| DDR2 (Homo sapiens, UniProt Q16832) | 100% |
| PIK3CD (Homo sapiens, UniProt O00329) | 94% |
| PRKCQ (Homo sapiens, UniProt Q04759) | 100% |
| PRKCI (Homo sapiens, UniProt P41743) | 100% |
| ERBB3 (Homo sapiens, UniProt P21860) | 65% |
| STK25 (Homo sapiens, UniProt O00506) | 100% |
| STK17B (Homo sapiens, UniProt O94768) | 62% |
| STK24 (Homo sapiens, UniProt Q9Y6E0) | 100% |
| CAMKK2 (Homo sapiens, UniProt Q96RR4) | 100% |
| CDK18 (Homo sapiens, UniProt Q07002) | 100% |

Sample 4 — observed: enzyme activity; action: inhibitor; tested at: 0.5 µM; relative to: control
Structure (SMILES): CN(C)CCCn1cc(C2=C(c3c[nH]c4ccccc34)C(=O)NC2=O)c2ccccc21
| target | remaining activity [%] |
| --- | --- |
| MAP4K4 (Homo sapiens, UniProt O95819) | 55.9 |
| STK17A (Homo sapiens, UniProt Q9UEE5) | 86.9 |
| EPHB4 (Homo sapiens, UniProt P54760) | 86.8 |
| WNK3 (Homo sapiens, UniProt Q9BYP7) | 98.4 |
| RPS6KA5 (Homo sapiens, UniProt O75582) | 17 |
| Cyclin-dependent kinase 6, with cyclin D3 (CDK6, Homo sapiens, UniProt Q00534) | 73.3 |
| SRMS (Homo sapiens, UniProt Q9H3Y6) | 104 |
| BLK (Homo sapiens, UniProt P51451) | 87 |
| Cyclin-dependent kinase 4, with cyclin D3 (CDK4, Homo sapiens, UniProt P11802) | 67 |
| CAMK2B (Homo sapiens, UniProt Q13554) | 74.5 |
| DYRK3 (Homo sapiens, UniProt O43781) | 97.9 |
| HIPK2 (Homo sapiens, UniProt Q9H2X6) | 77.5 |
| EPHB1 (Homo sapiens, UniProt P54762) | 87.4 |
| TSSK2 (Homo sapiens, UniProt Q96PF2) | 97.3 |
| MAPKAPK3 (Homo sapiens, UniProt Q16644) | 95.3 |
| AXL (Homo sapiens, UniProt P30530) | 100 |
| RPS6KA6 (Homo sapiens, UniProt Q9UK32) | 3.97 |
| STK16 (Homo sapiens, UniProt O75716) | 80.8 |
| PHKG1 (Homo sapiens, UniProt Q16816) | 31.9 |
| PDPK1 (Homo sapiens, UniProt O15530) | 83.3 |
| Cyclin-dependent kinase 1, with cyclin B (CDK1, Homo sapiens, UniProt P06493) | 92 |

For quick reference, copied from above (sample 3):
| target | remaining binding |
| --- | --- |
| MAPK1 (Homo sapiens, UniProt P28482) | 95% |
| MKNK1 (Homo sapiens, UniProt Q9BUB5) | 77% |
| Tyrosine-protein kinase ABL1, non-phosphorylated (ABL1, Homo sapiens, UniProt P00519, T315I) | 75% |
| STK38 (Homo sapiens, UniProt Q15208) | 100% |
| CSNK1E (Homo sapiens, UniProt P49674) | 100% |
| DMPK (Homo sapiens, UniProt Q09013) | 72% |
| ERBB2 (Homo sapiens, UniProt P04626) | 82% |
| STK32A (Homo sapiens, UniProt Q8WU08) | 83% |
| DDR2 (Homo sapiens, UniProt Q16832) | 100% |
| PIK3CD (Homo sapiens, UniProt O00329) | 94% |
| PRKCQ (Homo sapiens, UniProt Q04759) | 100% |
